Results collected from several papers.
Each line is one published result; not all experiments were run side by side.
UniProt P07949, sequence (whole entry, unmodified, looked up): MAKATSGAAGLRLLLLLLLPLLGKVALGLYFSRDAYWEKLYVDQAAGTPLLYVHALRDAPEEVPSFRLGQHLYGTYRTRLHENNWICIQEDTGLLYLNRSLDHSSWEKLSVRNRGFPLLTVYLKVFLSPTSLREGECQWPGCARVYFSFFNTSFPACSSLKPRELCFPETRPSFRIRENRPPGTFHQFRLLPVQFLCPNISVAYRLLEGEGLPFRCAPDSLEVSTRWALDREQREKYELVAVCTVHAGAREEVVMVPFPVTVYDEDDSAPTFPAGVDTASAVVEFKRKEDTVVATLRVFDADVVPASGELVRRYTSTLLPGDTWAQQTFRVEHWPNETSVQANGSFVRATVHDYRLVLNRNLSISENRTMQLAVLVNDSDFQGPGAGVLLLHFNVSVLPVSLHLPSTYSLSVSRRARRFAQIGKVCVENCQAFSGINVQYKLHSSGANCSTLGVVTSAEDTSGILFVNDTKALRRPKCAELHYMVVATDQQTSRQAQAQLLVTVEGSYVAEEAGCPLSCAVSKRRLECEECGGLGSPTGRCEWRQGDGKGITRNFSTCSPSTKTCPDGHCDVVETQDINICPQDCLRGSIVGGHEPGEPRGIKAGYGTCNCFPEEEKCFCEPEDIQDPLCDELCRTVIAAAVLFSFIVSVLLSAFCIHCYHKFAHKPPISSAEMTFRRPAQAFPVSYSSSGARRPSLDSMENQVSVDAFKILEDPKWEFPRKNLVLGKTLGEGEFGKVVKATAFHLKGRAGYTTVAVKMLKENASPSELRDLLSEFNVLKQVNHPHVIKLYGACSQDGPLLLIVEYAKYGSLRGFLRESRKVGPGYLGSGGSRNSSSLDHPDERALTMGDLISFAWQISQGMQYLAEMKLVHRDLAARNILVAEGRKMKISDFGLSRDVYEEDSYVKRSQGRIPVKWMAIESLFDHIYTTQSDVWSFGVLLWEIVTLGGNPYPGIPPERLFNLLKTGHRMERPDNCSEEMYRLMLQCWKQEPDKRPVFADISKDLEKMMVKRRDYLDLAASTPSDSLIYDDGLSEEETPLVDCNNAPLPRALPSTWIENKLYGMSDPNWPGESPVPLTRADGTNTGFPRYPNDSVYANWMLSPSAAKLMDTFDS
UniProt Q15208, sequence (whole entry, looked up): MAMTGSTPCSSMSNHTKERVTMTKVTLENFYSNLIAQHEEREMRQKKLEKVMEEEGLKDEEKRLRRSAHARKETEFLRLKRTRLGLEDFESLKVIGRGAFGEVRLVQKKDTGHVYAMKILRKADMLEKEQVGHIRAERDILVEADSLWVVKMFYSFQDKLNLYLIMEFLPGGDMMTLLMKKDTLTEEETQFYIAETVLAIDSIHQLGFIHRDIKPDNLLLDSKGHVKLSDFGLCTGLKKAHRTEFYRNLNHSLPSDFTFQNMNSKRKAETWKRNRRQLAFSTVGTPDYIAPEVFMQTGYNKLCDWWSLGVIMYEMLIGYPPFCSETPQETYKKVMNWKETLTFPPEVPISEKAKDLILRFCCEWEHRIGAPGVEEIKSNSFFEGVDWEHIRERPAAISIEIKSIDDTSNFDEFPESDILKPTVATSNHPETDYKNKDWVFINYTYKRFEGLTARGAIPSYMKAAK
UniProt Q96GD4, sequence (whole entry, looked up): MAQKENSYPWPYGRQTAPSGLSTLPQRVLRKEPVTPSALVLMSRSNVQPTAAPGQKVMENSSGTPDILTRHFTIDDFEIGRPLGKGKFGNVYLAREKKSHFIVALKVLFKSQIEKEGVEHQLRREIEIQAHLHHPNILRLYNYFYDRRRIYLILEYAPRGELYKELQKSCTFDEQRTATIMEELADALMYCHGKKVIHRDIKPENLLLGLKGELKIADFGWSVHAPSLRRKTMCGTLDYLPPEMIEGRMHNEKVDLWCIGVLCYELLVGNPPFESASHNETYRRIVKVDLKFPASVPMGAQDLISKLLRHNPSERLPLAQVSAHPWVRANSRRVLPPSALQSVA
UniProt P49286, sequence (whole entry, looked up): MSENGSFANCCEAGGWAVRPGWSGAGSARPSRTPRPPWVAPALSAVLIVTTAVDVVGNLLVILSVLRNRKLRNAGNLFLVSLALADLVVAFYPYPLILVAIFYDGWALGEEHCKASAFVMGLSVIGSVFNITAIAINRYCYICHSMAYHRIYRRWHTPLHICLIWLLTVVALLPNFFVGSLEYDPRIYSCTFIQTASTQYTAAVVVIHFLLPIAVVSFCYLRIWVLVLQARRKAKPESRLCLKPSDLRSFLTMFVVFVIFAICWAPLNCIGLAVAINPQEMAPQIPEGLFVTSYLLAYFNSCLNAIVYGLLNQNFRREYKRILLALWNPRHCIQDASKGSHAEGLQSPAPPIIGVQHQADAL
UniProt Q9BWU1, sequence (whole entry, looked up): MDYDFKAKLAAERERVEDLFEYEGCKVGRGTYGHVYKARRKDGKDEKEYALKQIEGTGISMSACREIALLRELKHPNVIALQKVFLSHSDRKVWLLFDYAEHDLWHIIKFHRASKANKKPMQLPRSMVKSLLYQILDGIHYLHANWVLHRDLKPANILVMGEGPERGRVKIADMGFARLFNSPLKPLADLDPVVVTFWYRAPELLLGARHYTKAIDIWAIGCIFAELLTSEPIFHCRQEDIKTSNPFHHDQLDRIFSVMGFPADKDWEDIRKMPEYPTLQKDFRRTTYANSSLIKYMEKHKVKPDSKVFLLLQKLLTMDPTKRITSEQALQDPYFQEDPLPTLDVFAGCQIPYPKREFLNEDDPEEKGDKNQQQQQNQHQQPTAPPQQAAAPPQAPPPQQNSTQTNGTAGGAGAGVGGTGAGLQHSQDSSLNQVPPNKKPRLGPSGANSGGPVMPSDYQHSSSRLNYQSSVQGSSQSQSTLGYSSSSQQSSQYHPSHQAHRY
UniProt Q12851, sequence (whole entry, looked up): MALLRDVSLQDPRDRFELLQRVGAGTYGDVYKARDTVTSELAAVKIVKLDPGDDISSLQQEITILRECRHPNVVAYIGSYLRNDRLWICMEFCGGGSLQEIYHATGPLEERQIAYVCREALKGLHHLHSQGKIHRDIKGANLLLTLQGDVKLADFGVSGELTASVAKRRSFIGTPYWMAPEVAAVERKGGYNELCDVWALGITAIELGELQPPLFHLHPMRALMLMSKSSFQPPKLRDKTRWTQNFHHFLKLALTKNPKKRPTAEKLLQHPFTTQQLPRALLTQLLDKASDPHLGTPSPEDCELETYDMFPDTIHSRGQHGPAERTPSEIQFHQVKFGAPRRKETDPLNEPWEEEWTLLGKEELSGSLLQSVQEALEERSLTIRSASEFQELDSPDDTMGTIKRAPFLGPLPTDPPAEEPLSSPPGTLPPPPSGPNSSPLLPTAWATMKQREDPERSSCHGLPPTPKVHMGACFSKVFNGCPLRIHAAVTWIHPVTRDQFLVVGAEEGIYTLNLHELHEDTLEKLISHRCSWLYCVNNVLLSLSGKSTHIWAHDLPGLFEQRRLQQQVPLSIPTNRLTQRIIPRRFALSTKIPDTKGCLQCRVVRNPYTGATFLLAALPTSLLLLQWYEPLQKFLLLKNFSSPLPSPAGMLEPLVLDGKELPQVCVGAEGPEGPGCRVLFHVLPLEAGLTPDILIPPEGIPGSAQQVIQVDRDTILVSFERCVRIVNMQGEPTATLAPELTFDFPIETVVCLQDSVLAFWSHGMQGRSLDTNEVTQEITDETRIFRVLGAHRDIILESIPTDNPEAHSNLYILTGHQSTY
UniProt Q9HAZ1, sequence (whole entry, looked up): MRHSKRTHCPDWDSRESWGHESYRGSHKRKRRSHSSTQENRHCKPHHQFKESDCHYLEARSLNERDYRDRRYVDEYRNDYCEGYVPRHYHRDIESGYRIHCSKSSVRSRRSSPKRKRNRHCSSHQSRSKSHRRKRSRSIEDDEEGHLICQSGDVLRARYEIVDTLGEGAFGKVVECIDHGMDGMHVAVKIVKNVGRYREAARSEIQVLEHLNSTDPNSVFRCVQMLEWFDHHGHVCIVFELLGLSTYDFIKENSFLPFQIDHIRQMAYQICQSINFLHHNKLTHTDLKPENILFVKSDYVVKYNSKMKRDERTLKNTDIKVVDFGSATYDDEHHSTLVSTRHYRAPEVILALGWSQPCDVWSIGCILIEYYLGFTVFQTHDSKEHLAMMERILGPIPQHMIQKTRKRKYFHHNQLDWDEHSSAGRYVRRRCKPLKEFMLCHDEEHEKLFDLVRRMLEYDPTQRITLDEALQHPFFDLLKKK

| SMILES | tested on | assay | test system | setting | quantity | result |
| --- | --- | --- | --- | --- | --- | --- |
| COc1ccc2[nH]cc(CCNC(C)=O)c2c1I | MTNR1B (Homo sapiens, UniProt P49286) | β-arrestin recruitment, agonist | MT2 | 90 min | Emax | 91% |
| C1=C/COCc2cc(ccc2OCCN2CCCC2)Nc2nccc(n2)-c2cccc(c2)COC/1 | MAP4K2 (Homo sapiens, UniProt Q12851) | binding |  | 0.1 µM | remaining binding | 20% |
| O=C(Nc1ccc(Oc2nnc(-c3ccc(Cl)cc3)c3ccccc23)cc1)c1cccc([N+](=O)[O-])c1 | HepG2 | cell growth or viability, MTT |  | 1.25 µM, 24 h | viability | 51.8% |
| COc1cc(-c2cncc3c2CN(C)Cc2cc(N4CCNCC4)ccc2-3)cc(OC)c1OC | CLK4 (Homo sapiens, UniProt Q9HAZ1) | enzyme activity, inhibitor |  | 1 µM | remaining activity | 106% |
| CNc1ncc2c(/C=C/C(=O)N3CCC(OC)CC3)nn(Cc3cccc(C(F)(F)F)c3)c2n1 | PRKACA (Homo sapiens, UniProt P17612) | enzyme activity, inhibitor, radiometric |  | 1 µM | remaining activity | 98% |
| CCCCC(=O)Nc1ccc(-c2ccc3ncn(CCC)c(=O)c3c2)cn1 | RET (Homo sapiens, UniProt P07949, V804M) | binding, competition with immobilised ligand |  | 0.5 µM | remaining binding | 100% |
| C=CC(=O)N1CCC(COCC(=O)N2CCN(c3nc(-c4cnc(N)nc4C(F)F)nc(N4CCOC[C@@H]4C)n3)CC2)CC1 | STK38 (Homo sapiens, UniProt Q15208) | binding, competition with immobilised ligand |  | 1 µM | remaining binding | 92% |
| CCCN(O)N=Nc1ccc(S(=O)(=O)Nc2cc(C)on2)cc1 |  | DPPH scavenging, absorbance |  | 20 µg/mL | inhibition | 5.83% |
| CN(C)c1nccc(-c2cnn3ncccc23)n1 | CDK19 (Homo sapiens, UniProt Q9BWU1) | binding |  | 1 µM | remaining binding | 100% |
| S=C(Nc1ccccc1)Nc1ccc(Oc2nnc(-c3ccc(Cl)cc3)c3ccccc23)cc1 | HepG2 | cell growth or viability, MTT |  | 5 µM | cell death | 94.7% |
| NC/C(=C\F)COc1cccc(Cn2c(=S)[nH]c(=O)c3[nH]cnc32)c1 | ADRA2A (Homo sapiens, UniProt P08913) | ligand displacement, radioligand |  | 10 µM | inhibition | < 50% |
| O=C1O[C@H]([C@@H](O)CO)C(O)=C1O |  | DPPH scavenging, absorbance |  | 10 µg/mL | inhibition | 45.9% |
| Cc1cc([C@@H](C)Nc2ccccc2C(=O)O)c2nc(N3CCC(F)(F)CC3)c(C#N)c(=O)n2c1 | Aurora kinase B (AURKB, Homo sapiens, UniProt Q96GD4) | binding, competition with immobilised ligand |  | 10 µM | remaining binding | 71% |
| COc1ccc2oc(-c3ccc4nc(N)oc4c3)c/c(=N\c3ccccc3NC(=O)CCN)c2c1 | SRC (Homo sapiens, UniProt P12931) | cell-free assay, inhibitor |  | 1 µM | remaining signal | 98% |
| Nc1ncnc2occ(-c3ccc(NC(=O)Nc4cc(C(F)(F)F)ccc4F)cc3)c12 | FLT3 (Homo sapiens, UniProt P36888, D835V/ITD) | cell-free assay, inhibitor |  | 20 µM | remaining signal | 4.8% |
